{"data": "Results gathered from unrelated publications", "cell line": "MCF7", "note": "Compare with care: the assays were run in different laboratories. Values joined by “and” are separate records of one study, mostly repeats; a detail may differ. ± marks the error that the study gave."}
{"SMILES": "COc1cccc2c1C(=O)c1c(O)c3c(c(O)c1C2=O)C[C@@](O)(C(=O)CO)C[C@@H]3O[C@H]1C[C@H](N)[C@H](O)[C@H](C)O1", "assay": "flow cytometry", "setting": "4.29 µM (IC50), 72 h", "endpoint": "cells in G0/G1 phase", "result": "25.3%"}
{"SMILES": "Cc1ccc(Cn2cc(COc3cccc(Cc4cnc(NC(=O)CSc5nc(C)cc(C)n5)s4)c3)nn2)cc1", "assay": "cell viability, MTS", "setting": "10 µM", "endpoint": "inhibition", "result": "10.8 ± 3.1%"}
{"SMILES": "Cn1cncc1C1=CN(c2ncnc3[nH]cnc23)CCS1", "endpoint": "TGI", "result": "115 µM"}
{"SMILES": "CC[C@@]1(O)C(=O)OCc2c1cc1n(c2=O)Cc2cc3c(CN(C)C)c(O)ccc3nc2-1", "assay": "MTT", "setting": "0.1 µM, 96 h", "endpoint": "cell death", "result": "~17%"}
{"SMILES": "C=CC(=O)c1cccnc1Nc1cc(Cl)ccc1OC", "assay": "firefly luciferase reporter", "setting": "100 µM, 6 h", "scale": "reference: vehicle", "endpoint": "TEAD reporter activity", "result": "2.1 ± 0.3%"}
{"SMILES": "CC(=O)c1nn(-c2ccccc2Cl)/c(=N/N=C(\\C)c2ccc(NC(=O)c3ccccc3)cc2)s1", "assay": "MTT", "setting": "5 µM", "endpoint": "cytotoxicity", "result": "93.8%"}
{"SMILES": "CC(=O)c1sc(=NN=C(C)c2c(O)c3ccccc3oc2=O)n(C)c1C", "assay": "cell growth, MTT", "scale": "reference: IC50 BJ-1 over MCF7", "endpoint": "selectivity index", "result": "> 3.06"}
{"SMILES": "O=[N+]([O-])c1cc(I)c(O)c(C=NNc2ccccc2)c1", "assay": "ELISA", "system": "culture supernatant", "setting": "IC50, together with: LPS", "endpoint": "TNF-α level", "result": "42.3%"}
{"SMILES": "C[C@@H]1CC[C@@H]([C@@](O)(CNCc2cccc3ccccc23)COCc2ccccc2)[C@H](OCc2ccccc2)C1", "assay": "cell growth, inhibitor, MTT", "setting": "72 h", "endpoint": "IC50", "result": "5.67 µM"}
{"SMILES": "O=C1NC(c2ccccc2)(c2ccccc2)C(=O)N1Cc1cn(-c2c3ccccc3nc3ccccc23)nn1", "assay": "NCI60 single-dose screen", "setting": "10 µM", "endpoint": "growth percentage", "result": "73.9%"}
{"SMILES": "O=[N+]([O-])c1ccc(O)c(C=NNc2ccc(Br)cc2)c1", "assay": "Muse cell cycle", "setting": "IC50, 24 h", "endpoint": "cells in G0/G1 phase", "result": "63.8%"}
{"SMILES": "CC(C)[C@H](NC(=O)c1cc(Cl)ccc1OCCNC(=O)OC(C)(C)C)C(=O)Nc1ccc([N+](=O)[O-])cc1Cl", "setting": "0.1 to 10 µM, 2 weeks", "endpoint": "colony formation", "result": "inhibited"}
{"SMILES": "CC/C(=C(\\c1ccccc1)c1ccc(OCCN(C)C)cc1)c1ccccc1", "assay": "RNA-seq, measured: RAPGEFL1 mRNA", "setting": "1 µM, 24 h, E2-induced gene", "scale": "reference: DMSO vehicle", "endpoint": "log2 fold change", "result": 1.31}
{"SMILES": "OCc1ccc(Nc2ccc3c(Nc4cccc(C(F)(F)F)c4)ncnc3c2)cc1", "assay": "annexin V-PE/DAPI", "setting": "concentration not given, 24 h", "endpoint": "live cells", "result": "62.2%"}
{"SMILES": "COc1ccc(C(F)(F)F)cc1Nc1ncccc1C(=O)O", "assay": "firefly luciferase reporter", "setting": "50 µM, 6 h", "scale": "reference: vehicle", "endpoint": "TEAD reporter activity", "result": "84.9 ± 6.3%"}
{"SMILES": "O=C(Nc1nnc2n3c(nc(-c4ccc(Cl)cc4)c1-2)SCC3=O)c1ccccc1", "assay": "SRB", "setting": "10 µM, NCI60 single-dose screen", "scale": "reference: untreated", "endpoint": "cell growth", "result": "76.6%"}
{"SMILES": "CCOC(=O)c1sc(=NN=C(C)c2c(O)c3ccccc3oc2=O)n(C)c1C", "assay": "cell growth, MTT", "scale": "reference: IC50 BJ-1 over MCF7", "endpoint": "selectivity index", "result": "> 8.93"}
{"SMILES": "CCC(=O)N1CCC(COCC(=O)N2CCN(c3nc(-c4cnc(N)nc4C(F)F)nc(N4CCOC[C@@H]4C)n3)CC2)CC1", "assay": "resazurin growth rate inhibition", "setting": "72 h", "endpoint": "GR50", "result": "180 nM"}
{"SMILES": "COc1ccc(-n2nc(C(C)=O)s/c2=N\\N=C(/C)c2ccc(NC(=O)c3ccccc3)cc2)cc1", "setting": "0.078 µM", "endpoint": "toxicity", "result": "11.4%"}
{"SMILES": "C#C[C@@]1(O)[C@@H](CO)O[C@@H](n2cc(Br)c3c(N)ncnc32)[C@@H]1O", "assay": "SRB", "setting": "NCI-60 screen", "endpoint": "TGI", "result": "1.19 µM and 1.81 µM"}
{"SMILES": "CC(=NN=c1[nH]c(C)c(N=Nc2ccccc2)s1)c1c(O)c2ccccc2oc1=O", "assay": "cell growth, MTT", "scale": "reference: IC50 BJ-1 over MCF7", "endpoint": "selectivity index", "result": "> 2.99"}
{"SMILES": "COc1ccc(COC[C@@](O)(CNCc2ccccc2)[C@@H]2CC[C@@H](C)C[C@H]2OCc2ccc(OC)cc2)cc1", "assay": "cell growth, inhibitor, MTT", "setting": "72 h", "endpoint": "IC50", "result": "1.43 µM"}
{"SMILES": "O=[N+]([O-])c1cc(Br)c(O)c(C=NNc2ccccc2)c1", "assay": "ELISA", "system": "culture supernatant", "setting": "IC50, together with: LPS", "endpoint": "TNF-α level", "result": "42%"}
{"SMILES": "C=CC(=O)c1cccnc1Nc1cc(C(F)(F)F)ccc1OC", "assay": "firefly luciferase reporter", "setting": "25 µM, 6 h", "scale": "reference: vehicle", "endpoint": "TEAD reporter activity", "result": "86.8 ± 7.2%"}
{"SMILES": "CCOC(=O)c1nn(-c2cccc(Cl)c2)/c(=N/N=C(\\C)c2ccc(NC(=O)c3ccc(Cl)cc3)cc2)s1", "assay": "MTT", "setting": "5 µM", "endpoint": "cytotoxicity", "result": "96.3%"}
{"SMILES": "CCOc1ccc(-c2nc3cc(-c4nc5cc(N6CCN(C)CC6)ccc5[nH]4)ccc3[nH]2)cc1OCC", "assay": "SRB", "setting": "10 µM, 48 h", "endpoint": "growth percent", "result": "7.04%"}
{"SMILES": "CC(=O)c1nn(-c2ccc(C)cc2)/c(=N/N=C(\\C)c2ccc(NC(=O)c3ccccc3)cc2)s1", "assay": "MTT", "setting": "0.156 µM", "endpoint": "cytotoxicity", "result": "90.9%"}
{"SMILES": "O=C(/C=C/C=C/C=C/C1CCCCC1)NC1=C[C@@](O)(/C=C/C=C/C=C/C(=O)NC2=C(O)CCC2=O)[C@@H]2O[C@@H]2C1=O", "assay": "cell growth, CellTiter-Glo", "setting": "78 h", "endpoint": "GI50", "result": "16.4 µM"}
{"SMILES": "C=CC(=O)c1cccnc1Nc1cc(NC(C)=O)ccc1OC", "assay": "firefly luciferase reporter", "setting": "50 µM, 6 h", "scale": "reference: vehicle", "endpoint": "TEAD reporter activity", "result": "45.6 ± 1.4%"}
{"SMILES": "Cc1cc(=O)[nH]n1-c1nc(-c2ccc(Cl)cc2)c2c(NC(=O)c3ccccc3)nnc-2[nH]1", "assay": "SRB", "setting": "10 µM, NCI60 single-dose screen", "scale": "reference: untreated", "endpoint": "cell growth", "result": "88.8%"}
{"SMILES": "Cc1nc(NC(=O)N2CCC[C@H]2C(N)=O)sc1-c1ccnc(C(C)(C)C(F)(F)F)c1", "assay": "resazurin growth rate inhibition", "setting": "72 h", "endpoint": "GR50", "result": "1620 nM"}
{"SMILES": "COC(=O)COc1c(Cc2cc(C(C)(C)CC(C)(C)C)cc(-n3nc4ccccc4n3)c2OCC(=O)OC)cc(C(C)(C)CC(C)(C)C)cc1-n1nc2ccccc2n1", "assay": "MTT", "setting": "100 µM, 48 h", "endpoint": "growth inhibition", "result": "95.1 ± 2.88%"}
{"SMILES": "CCC(=O)c1cccnc1Nc1cccc(C(F)(F)F)c1", "assay": "firefly luciferase reporter", "setting": "50 µM, 6 h", "scale": "reference: vehicle", "endpoint": "TEAD reporter activity", "result": "86.8 ± 4.8%"}
{"SMILES": "CC(=O)c1nn(-c2ccc(Cl)cc2)/c(=N/N=C(\\C)c2ccc(NC(=O)c3ccc(Cl)cc3)cc2)s1", "setting": "0.312 µM", "endpoint": "toxicity", "result": "0.129%"}
{"SMILES": "C=CC(=O)c1cccnc1Nc1cccc(C(F)(F)F)c1", "assay": "firefly luciferase reporter", "setting": "25 µM, 6 h", "scale": "reference: vehicle", "endpoint": "TEAD reporter activity", "result": "104.2 ± 0.2%"}
{"SMILES": "CCn1c(C)c(C(C)=O)sc1=NN=C(C)c1c(O)c2ccccc2oc1=O", "assay": "cell growth, MTT", "scale": "reference: IC50 BJ-1 over MCF7", "endpoint": "selectivity index", "result": "> 2.97"}
{"SMILES": "CC/C(=C(\\c1ccc(O)cc1)c1ccc(OCCNC)cc1)c1ccccc1", "setting": "5 µM, 5 days", "scale": "reference: vehicle", "endpoint": "cell growth", "result": "33%"}
{"SMILES": "C=CC(=O)c1cccnc1Nc1cc(F)ccc1OC", "assay": "firefly luciferase reporter", "setting": "25 µM, 6 h", "scale": "reference: vehicle", "endpoint": "TEAD reporter activity", "result": "87.3 ± 6.5%"}
{"SMILES": "CC(=O)c1nn(-c2ccc(Cl)cc2)/c(=N/N=C(\\C)c2ccc(NC(=O)c3ccccc3)cc2)s1", "setting": "1.25 µM", "endpoint": "toxicity", "result": "95.6% and 95.4%"}
{"SMILES": "CC(=O)Nc1ccc(/C(C)=N/N=c2\\sc(C(C)=O)nn2-c2ccc(C)cc2)cc1", "assay": "MTT", "setting": "0.312 µM", "endpoint": "cytotoxicity", "result": "0.259%"}
{"SMILES": "C=CC(=O)c1cccnc1Nc1cc(NC(=O)CCCCCC)ccc1OC", "assay": "firefly luciferase reporter", "setting": "25 µM, 6 h", "scale": "reference: vehicle", "endpoint": "TEAD reporter activity", "result": "51.1 ± 1.7%"}
{"SMILES": "CCOC(=O)c1nn(-c2cccc(Cl)c2)/c(=N/N=C(\\C)c2ccc(NC(=O)c3ccccc3)cc2)s1", "assay": "MTT", "setting": "0.312 µM", "endpoint": "cytotoxicity", "result": "93.7%"}
{"SMILES": "CCCN1CCN(c2ccc3[nH]c(-c4ccc5[nH]c(-c6ccc(C(F)(F)F)cc6)nc5c4)nc3c2)CC1", "assay": "SRB", "setting": "10 µM, 48 h", "endpoint": "growth percent", "result": "-77%"}
{"SMILES": "C=C1CN(S(=O)(=O)c2ccc(C)cc2)CCc2cc(-c3ccccc3)cc(n2)CCN(S(=O)(=O)c2ccc(C)cc2)C1.Cl", "setting": "4 µM, 48 h, together with: progranulin 1 µg/mL", "endpoint": "mammosphere formation", "result": "decreased"}
{"note": "A few entries again:"}
{"SMILES": "O=C1NC(c2ccccc2)(c2ccccc2)C(=O)N1Cc1cn(-c2c3ccccc3nc3ccccc23)nn1", "assay": "NCI60 single-dose screen", "setting": "10 µM", "endpoint": "growth percentage", "result": "73.9%"}
{"SMILES": "O=[N+]([O-])c1ccc(O)c(C=NNc2ccc(Br)cc2)c1", "assay": "Muse cell cycle", "setting": "IC50, 24 h", "endpoint": "cells in G0/G1 phase", "result": "63.8%"}
{"SMILES": "CC(C)[C@H](NC(=O)c1cc(Cl)ccc1OCCNC(=O)OC(C)(C)C)C(=O)Nc1ccc([N+](=O)[O-])cc1Cl", "setting": "0.1 to 10 µM, 2 weeks", "endpoint": "colony formation", "result": "inhibited"}
{"SMILES": "CC/C(=C(\\c1ccccc1)c1ccc(OCCN(C)C)cc1)c1ccccc1", "assay": "RNA-seq, measured: RAPGEFL1 mRNA", "setting": "1 µM, 24 h, E2-induced gene", "scale": "reference: DMSO vehicle", "endpoint": "log2 fold change", "result": 1.31}
{"SMILES": "OCc1ccc(Nc2ccc3c(Nc4cccc(C(F)(F)F)c4)ncnc3c2)cc1", "assay": "annexin V-PE/DAPI", "setting": "concentration not given, 24 h", "endpoint": "live cells", "result": "62.2%"}
{"SMILES": "COc1ccc(C(F)(F)F)cc1Nc1ncccc1C(=O)O", "assay": "firefly luciferase reporter", "setting": "50 µM, 6 h", "scale": "reference: vehicle", "endpoint": "TEAD reporter activity", "result": "84.9 ± 6.3%"}
{"SMILES": "O=C(Nc1nnc2n3c(nc(-c4ccc(Cl)cc4)c1-2)SCC3=O)c1ccccc1", "assay": "SRB", "setting": "10 µM, NCI60 single-dose screen", "scale": "reference: untreated", "endpoint": "cell growth", "result": "76.6%"}
